Measurements pooled from the literature.
Lines come from different studies, so protocols differ. ± marks the error that the study gave.
lecB: Fucose-binding lectin PA-IIL (lecB, Pseudomonas aeruginosa, UniProt Q9HYN5)

| Structure (SMILES) | target | assay | system | setting | Kd [µM] |
| --- | --- | --- | --- | --- | --- |
| CC[C@H](C)[C@H](NC(=O)[C@H](Cc1c[nH]cn1)NC(=O)[C@H](CCCCNC(=O)[C@@H](NC(=O)[C@H](CCCCN)NC(=O)CSC[C@H](NC(=O)[C@H](Cc1ccccc1)NC(=O)[C@H](CCCCNC(=O)[C@H](CC(C)C)NC(=O)[C@@H]1CCCN1C(=O)[C@H](CCCCN)NC(=O)C[C@@H]1O[C@@H](C)[C@@H](O)[C@@H](O)[C@@H]1O)NC(=O)[C@H](CC(C)C)NC(=O)[C@@H]1CCCN1C(=O)[C@H](CCCCN)NC(=O)C[C@@H]1O[C@@H](C)[C@@H](O)[C@@H](O)[C@@H]1O)C(N)=O)[C@@H](C)CC)NC(=O)[C@@H](NC(=O)[C@H](CCCCN)NC(=O)CSC[C@H](NC(=O)[C@H](Cc1ccccc1)NC(=O)[C@H](CCCCNC(=O)[C@H](CC(C)C)NC(=O)[C@@H]1CCCN1C(=O)[C@H](CCCCN)NC(=O)C[C@@H]1O[C@@H](C)[C@@H](O)[C@@H](O)[C@@H]1O)NC(=O)[C@H](CC(C)C)NC(=O)[C@@H]1CCCN1C(=O)[C@H](CCCCN)NC(=O)C[C@@H]1O[C@@H](C)[C@@H](O)[C@@H](O)[C@@H]1O)C(N)=O)[C@@H](C)CC)C(N)=O | lecB | binding, ITC |  | pH 7.5 | 0.088 |
| O=C(O)COc1ccc(Cl)cc1 | Chloride channel protein (Torpedo marmorata, UniProt P21564, C212S) | single-channel current, blocker, inside-out patch clamp |  | -100 and -80 mV | ~15000 |
| CC[C@H](C)[C@H](NC(=O)[C@H](Cc1c[nH]cn1)NC(=O)[C@H](CCCCNC(=O)[C@@H](NC(=O)[C@H](CCCCN)NC(=O)CSC[C@H](NC(=O)[C@H](Cc1ccccc1)NC(=O)[C@H](CCCCNC(=O)[C@H](CC(C)C)NC(=O)[C@@H]1CCCN1C(=O)[C@H](CCCCN)NC(=O)C[C@@H]1O[C@@H](C)[C@@H](O)[C@@H](O)[C@@H]1O)NC(=O)[C@H](CC(C)C)NC(=O)[C@@H]1CCCN1C(=O)[C@H](CCCCN)NC(=O)CCS[C@@H]1O[C@H](CO)[C@H](O)[C@H](O)[C@H]1O)C(N)=O)[C@@H](C)CC)NC(=O)[C@@H](NC(=O)[C@H](CCCCN)NC(=O)CSC[C@H](NC(=O)[C@H](Cc1ccccc1)NC(=O)[C@H](CCCCNC(=O)[C@H](CC(C)C)NC(=O)[C@@H]1CCCN1C(=O)[C@H](CCCCN)NC(=O)C[C@@H]1O[C@@H](C)[C@@H](O)[C@@H](O)[C@@H]1O)NC(=O)[C@H](CC(C)C)NC(=O)[C@@H]1CCCN1C(=O)[C@H](CCCCN)NC(=O)CCS[C@@H]1O[C@H](CO)[C@H](O)[C@H](O)[C@H]1O)C(N)=O)[C@@H](C)CC)C(N)=O | lecB | binding, ITC |  | pH 7.5 | 0.121 |
| Nc1c(C(=O)Nc2ccncc2)sc2nc(-c3cccc(C(F)(F)F)c3)ccc12 | HIV-1 TAR RNA hairpin, 2-AP at U25 | binding, 2-aminopurine fluorescence titration | PBS | pH 7.4, together with: 2-AP TAR RNA 500 nM | 0.23 ± 0.02 |
| CC[C@H](C)[C@H](N)C(=O)N[C@@H](CO)C(=O)N[C@@H](Cc1ccccc1)C(=O)N[C@@H]1CSCc2ccc(cc2)-c2ccc(cc2)CSC[C@@H](C(=O)N[C@@H](CCC(=O)O)C(=O)N[C@@H](CO)C(=O)NCC(=O)N[C@@H](CO)C(N)=O)NC(=O)[C@H](Cc2ccc(O)cc2)NC(=O)[C@H](Cc2ccc(O)cc2)NC(=O)[C@H](CC(=O)O)NC(=O)[C@H](CC(C)C)NC(=O)[C@H](CC(C)C)NC(=O)[C@H](CCC(=O)O)NC1=O | HIV-1 capsid C-terminal domain M184A/W185A | binding, isothermal titration calorimetry |  |  | 17.5 ± 6.2 |
| C[C@@H](O)[C@@H]1NC(=O)[C@H](CCCCN)NC(=O)CCC(=O)NCCCC[C@@H](C(=O)NCC(=O)NCC(=O)N[C@@H](Cc2ccc(O)cc2)C(=O)NCC(=O)N[C@@H](CCCNC(=N)N)C(=O)N[C@@H](CCCCN)C(=O)N[C@@H](CCCCN)C(=O)N[C@@H](CCCNC(=N)N)C(=O)N[C@@H](CCCNC(=N)N)C(=O)N[C@@H](CCC(N)=O)C(=O)N[C@@H](CCCNC(=N)N)C(=O)N[C@@H](CCCNC(=N)N)C(=O)N[C@@H](CCCNC(=N)N)C(N)=O)NC(=O)[C@H](CCCCN)NC(=O)[C@H](CCC(=O)O)NC(=O)[C@H](CC(=O)O)NC(=O)CNC1=O | Heat shock protein HSP 90-alpha (HSP90AA1, Homo sapiens, UniProt P07900) | binding, field-effect biosensor |  | pH 7.4 | 137 ± 24.3 |
| CC(C)[C@@H]1NC(=O)[C@H](Cc2ccccc2)NC(=O)CSC[C@@H](C(N)=O)NC(=O)[C@H](CCC(=O)O)NC(=O)[C@H](CO)NC(=O)[C@H](Cc2c[nH]c3ccccc23)NC(=O)[C@H](C(C)C)NC(=O)[C@H](C(C)C)NC(=O)[C@H](Cc2ccc(O)cc2)NC(=O)[C@H](CC(=O)O)NC(=O)[C@H](Cc2c[nH]c3ccccc23)NC(=O)[C@H](Cc2ccc(O)cc2)NC(=O)[C@H](Cc2c[nH]c3ccccc23)NC(=O)[C@H](CCC(=O)O)NC1=O | Interleukin-1 receptor-like 2, D1-D2 domains (IL1RL2, Homo sapiens, UniProt Q9HB29) | SPR |  | IL-36R D1-D2 | 1.1 |
| CC(C)CC(NC(=O)C(NC(=O)NC(C(=O)O)C(C)C)C1CCNC(=N)N1)C(=O)NCCCNC(C(=O)O)C(OC1OC(CN)C(O)C1O)C1OC(n2ccc(=O)[nH]c2=O)C(O)C1O (stereo not shown) | Phospho-N-acetylmuramoyl-pentapeptide-transferase (mraY, Aquifex aeolicus, UniProt O66465, H325A) | binding, ITC |  |  | 0.0244 |
| CCC(C(=O)OC)C1N=C(c2ccc(Cl)cc2)c2cc(OC)ccc2-n2c(C)nnc21 (stereo not shown) | Bromodomain-containing protein 2, tandem bromodomains (BRD2, Homo sapiens, UniProt P25440, L110A/L383A) | binding, isothermal titration calorimetry |  | 30 °C, tandem double L/A mutant | 0.024 |
| O=C(O)/C=C/c1ccccc1 | PAL1 (Petroselinum crispum, UniProt P24481, Y110F) | ITC |  | pH 8.0, 30 °C | 16.6 |
| CSCC[C@H](NC(C)=O)C(=O)N[C@@H](CC(=O)O)C(=O)N[C@@H](CO)C(=O)N[C@@H](CCCCN)C(=O)N[C@@H](Cc1ccc(O)cc1)C(=O)N[C@H](C(=O)N[C@H](C(=O)N[C@@H](CC(C)C)C(=O)N[C@@H](Cc1ccc(O)cc1)C(=O)N[C@@H](Cc1ccc(O)cc1)C(=O)N[C@@H](CCC(N)=O)C(=O)N[C@@H](CC(C)C)C(=O)N[C@@H](Cc1c[nH]c2ccccc12)C(=O)N[C@@H](Cc1c[nH]c2ccccc12)C(=O)N[C@@H](CCCCN)C(=O)NCC(=O)N[C@@H](CO)C(=O)NCC(=O)N[C@@H](CO)C(=O)NCC(=O)N[C@@H](CO)C(=O)N[C@@H](CC(=O)O)C(=O)N[C@@H](Cc1ccc(O)cc1)C(=O)N[C@@H](CCCCN)C(=O)N[C@@H](CC(=O)O)C(=O)N[C@@H](CC(=O)O)C(=O)N[C@@H](CC(=O)O)C(=O)N[C@@H](CC(=O)O)C(=O)N[C@@H](CCCCN)C(=O)N[C@@H](CCCCN=[N+]=[N-])C(N)=O)[C@@H](C)O)C(C)C | Fibroblast growth factor receptor 1 (FGFR1, Homo sapiens, UniProt P11362) | binding, BLI |  |  | > 10 |
| N=C(N)NCCC[C@H](NC(=O)[C@H](Cc1ccccc1)NC(=O)[C@@H]1CCCN1C(=O)[C@H](CO)NC(=O)[C@H](Cc1ccccc1)NC(=O)CNC(=O)[C@@H]1CCCN1C(=O)[C@@H]1CCCN1C(=O)[C@@H](N)CCCNC(=N)N)C(=O)N[C@@H](CCCCNS(=O)(=O)c1ccc(C2=c3cc4c5c(c3Oc3c2cc2c6c3CCCN6CCC2)CCC[N+]=5CCC4)c(S(=O)(=O)[O-])c1)C(=O)O | Oligopeptide-binding protein OppA (oppA, Lactococcus lactis subsp. lactis, UniProt Q07741) | binding, fluorescence anisotropy |  | pH 5, 37 °C, together with: dye-labelled peptide | 21.4 ± 0.5 |
| CN(C)C(=O)C(NC(=O)c1ccccc1-c1ccc(C(F)(F)F)cc1)c1cccc(C(F)(F)F)c1 (stereo not shown) | NKG2-D type II integral membrane protein (Klrk1, Mus musculus, UniProt O54709) | binding, surface plasmon resonance |  |  | > 80 |
| CC[C@H](C)[C@H](NC(=O)[C@H](Cc1c[nH]c2ccccc12)NC(=O)[C@@H](NC(=O)[C@H](CCCCN)NC(=O)[C@H](CO)NC(=O)[C@H](Cc1ccccc1)NC(=O)[C@@H](N)[C@@H](C)O)C(C)C)C(=O)N[C@H](C(=O)N[C@@H](CO)C(=O)N[C@@H](CCCCN)C(=O)N[C@@H](CC(=O)O)C(=O)N[C@H](C(=O)O)[C@@H](C)O)C(C)C | Gastrin-releasing peptide (Homo sapiens, UniProt P07492) | biolayer interferometry |  |  | 0.16 |
| CCN(CCCC[C@H](NC(=O)[C@H](Cc1ccc(OC)c(OC)c1)NC(=O)[C@H](C)NC(=O)[C@H](CC1CCCCC1)NC(=O)c1ccc(Br)c(N)c1)C(=O)N[C@@H](CO)C(=O)OC)C(C)C | Chromodomain Y-like protein 2 (CDYL2, Homo sapiens, UniProt Q8N8U2) | binding, ITC |  |  | ~1 |
| CC(C)C[C@H](NC(=O)CN)C(=O)N[C@@H](CO)C(=O)N[C@@H](Cc1ccccc1)C(=O)N[C@@H](C)C(=O)N[C@@H](Cc1ccccc1)C(=O)N1CCC[C@H]1C(=O)N[C@@H](C)C(=O)N[C@@H](CCCCN)C(=O)N[C@@H](CC(=O)O)C(=O)N[C@@H](C)C(=O)N[C@@H](CCC(=O)O)C(=O)N[C@@H](CC(N)=O)C(=O)N[C@@H](C)C(=O)N[C@@H](CO)C(=O)N[C@@H](CO)C(=O)N1CCC[C@H]1C(=O)N[C@H](C(=O)O)C(C)C | Peptide cyclase 1 (Gypsophila vaccaria, UniProt R4P353, S562A) |  |  |  | 0.25 ± 0.039 |

Some of these lines once more:
| Structure (SMILES) | target | assay | system | setting | Kd [µM] |
| --- | --- | --- | --- | --- | --- |
| O=C(O)/C=C/c1ccccc1 | PAL1 (Petroselinum crispum, UniProt P24481, Y110F) | ITC |  | pH 8.0, 30 °C | 16.6 |
